Results collected from several papers.
Lines come from different studies, so protocols differ.
TDP1: Tyrosyl-DNA phosphodiesterase 1 (TDP1, Homo sapiens, UniProt Q9NUW8)
UniProt Q9NUW8, sequence (whole entry, looked up): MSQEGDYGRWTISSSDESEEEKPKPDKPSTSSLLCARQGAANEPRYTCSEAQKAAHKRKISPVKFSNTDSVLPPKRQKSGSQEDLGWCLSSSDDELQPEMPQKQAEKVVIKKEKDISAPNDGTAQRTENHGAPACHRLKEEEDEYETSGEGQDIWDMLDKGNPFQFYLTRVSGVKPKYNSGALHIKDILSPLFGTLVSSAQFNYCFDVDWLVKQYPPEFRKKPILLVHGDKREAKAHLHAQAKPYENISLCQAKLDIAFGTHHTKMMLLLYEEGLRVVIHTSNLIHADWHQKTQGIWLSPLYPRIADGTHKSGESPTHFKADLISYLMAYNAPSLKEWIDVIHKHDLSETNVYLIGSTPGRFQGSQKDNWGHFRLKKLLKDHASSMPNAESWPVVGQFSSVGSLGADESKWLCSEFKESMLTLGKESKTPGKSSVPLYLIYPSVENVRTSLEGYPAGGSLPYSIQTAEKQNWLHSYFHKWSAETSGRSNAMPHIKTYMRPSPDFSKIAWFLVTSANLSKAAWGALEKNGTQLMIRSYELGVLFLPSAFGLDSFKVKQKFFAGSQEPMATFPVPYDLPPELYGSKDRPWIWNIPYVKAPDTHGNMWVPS

O=C(O)c1ccc(Nc2c(-c3ccc(CON=Cc4cc5c(cc4[N+](=O)[O-])OCCO5)cc3)nc3cc(-c4ccccc4)ccn23)cc1 (mixture of isomers)  inhibition (TDP1; enzyme activity, inhibitor; 100 µM, unpurified compound): 52.3%
COc1cnc2cccc(N3CCc4c(cc(Cn5ccnc5)cc4-c4cn(C)nc4C(F)(F)F)C3=O)c2c1  Tmax (male CD-1 mouse, plasma; oral, 10 mg/kg): 0.3 h
Cc1cc(NC(=O)[C@H](O)c2cc(F)cc(F)c2)ccc1-c1cnc(N)c(C(=O)NC(C)C)c1  Tmax (female nude mouse, plasma; oral, 10 mg/kg, single dose): 1 h
C=C(NC(=O)c1csc(-c2nc3c(cc2O)-c2nc(cs2)C(=O)NC(C(C)O)C(=O)NC(=C(C)OC)c2nc(cs2)C(=O)NC2c4nc(cs4)C(=O)NC(COC(=O)c4c5c6c(cccc6n4O)COC(=O)C(OC4CC(C)(O)C(N(C)C)C(C)O4)C2OC5)c2nc-3cs2)n1)C(N)=O (centres unmarked)  Tmax (ICR mice, Streptococcus pneumoniae ATCC 49169 infected, immunocompromised, blood; intravenous, 16 mg/kg/day once daily): 0.08 h
O=C(OC(C(F)(F)F)C(F)(F)F)N1CCC(CNS(=O)(=O)c2ccc(Cl)cc2)CC1  Tmax (male SCID mouse, plasma; oral, 30 mg/kg): 4 h
CC(C)C[C@H](NC(=O)[C@H](CCCN)NC(=O)CNC(=O)[C@@H](NC(=O)[C@H](C)NC(=O)[C@@H]1CSCSC[C@H](NC(=O)CC[C@H](N)C(=O)O)C(=O)N[C@@H](CC(N)=O)C(=O)N[C@@H]([C@@H](C)O)C(=O)N[C@@H](C)C(=O)N[C@@H]([C@@H](C)O)C(=O)N1)[C@@H](C)O)C(=O)N[C@@H](C)C(=O)N[C@@H](CCC(=O)O)C(=O)N[C@@](C)(Cc1ccccc1)C(=O)N[C@@H](CC(C)C)C(=O)N[C@H](C(=O)N[C@@H](CCCNC(=N)N)C(=O)N[C@@H](CO)C(=O)N[C@@H](CO)C(=O)N[C@@H](CC(N)=O)C(=O)N(C)[C@@H](CC(N)=O)C(=O)N[C@@H](Cc1ccccc1)C(=O)NCC(=O)N1CCC[C@H]1C(=O)N[C@@H](CCCCNC(=O)CC[C@H](NC(=O)CC[C@H](NC(=O)CCCCCCCCCCCCCCCCCCC(=O)O)C(=O)O)C(=O)O)C(=O)N[C@@H](CC(C)C)C(=O)N1CCC[C@H]1C(=O)N1CCC[C@H]1C(=O)N[C@H](C(=O)N[C@@H](CCC(=O)O)C(=O)N[C@H](C(=O)NCC(=O)N[C@@H](CO)C(=O)N[C@@H](CC(N)=O)C(=O)N[C@H](C(=O)N[C@@H](Cc1ccc(O)cc1)C(N)=O)[C@@H](C)O)C(C)C)[C@@H](C)O)C(C)C  Tmax (human, plasma; subcutaneous, 1.2 mg, single dose, healthy volunteers): 84 h
C/C(N)=N/C(=N\S(=O)(=O)c1ccc(C(F)(F)F)cc1)N1C[C@H](c2ccccc2)C(c2ccc(Cl)cc2)=N1  Tmax (beagle dog, plasma; oral, 24 mg/kg): 2 h
[2H]C([2H])([2H])NC(=O)c1ccc(N2C(=S)N(c3ccc(C#N)c(C(F)(F)F)c3)C(=O)C2(C)C)cc1F  Tmax (male human, plasma; oral, 40 mg, single dose, fasted): 1.35 h
O=C(O)c1ccc(Nc2c(-c3ccc(CON=Cc4cccn4-c4nccc(-c5cccs5)n4)cc3)nc3cc(-c4ccccc4)ccn23)cc1 (mixture of isomers)  inhibition (TDP1; enzyme activity, inhibitor; 100 µM, unpurified compound): 75.6%
COc1cc2ncnc(Oc3ccc(Nc4nccc5[nH]cc(-c6ccc(F)cc6)c(=O)c45)cc3F)c2cc1OC  Tmax (male beagle dog, plasma; oral, 4 mg/kg): 2.33 h
Cn1ccc(-c2cc(Cl)c(Cl)c3[nH]c4c(c23)CN(C(=O)CO)CC4)n1  Tmax (C57BL/6 mouse, blood; oral, 20 mg/kg): 2 h

Some of these lines once more:
C=C(NC(=O)c1csc(-c2nc3c(cc2O)-c2nc(cs2)C(=O)NC(C(C)O)C(=O)NC(=C(C)OC)c2nc(cs2)C(=O)NC2c4nc(cs4)C(=O)NC(COC(=O)c4c5c6c(cccc6n4O)COC(=O)C(OC4CC(C)(O)C(N(C)C)C(C)O4)C2OC5)c2nc-3cs2)n1)C(N)=O (centres unmarked)  Tmax (ICR mice, Streptococcus pneumoniae ATCC 49169 infected, immunocompromised, blood; intravenous, 16 mg/kg/day once daily): 0.08 h
